# Measured values of several laboratories.
# Each line is one published result; not all experiments were run side by side. ± gives the spread as reported.
SMILES,system,conditions,Tmax
CCN1CCN(c2ccc(Nc3cc(N(C)C(=O)Nc4c(Cl)c(OC)cc(OC)c4Cl)ncn3)cc2)CC1,"Crl:WI(Han) rat, juvenile male, plasma","oral gavage, 1.0 mg/kg/day, postnatal day 17",180 min
CC(C)=CCC[C@](C)(O[C@@H]1O[C@H](CO)[C@@H](O)[C@H](O)[C@H]1O)[C@H]1CC[C@]2(C)[C@@H]1[C@H](O)C[C@@H]1[C@@]3(C)CC[C@H](O)C(C)(C)[C@@H]3[C@@H](O[C@@H]3O[C@H](CO)[C@@H](O)[C@H](O)[C@H]3O[C@@H]3O[C@@H](C)[C@H](O)[C@@H](O)[C@H]3O)C[C@]12C,"Sprague Dawley rat, male, plasma","oral, 45 mg/kg, mixture of pure ginsenosides",4.8 ± 1.2 min
Cc1nc2cccc(OCC(C)(C)C(=O)NC(C)C)c2c(N)c1C(=O)O,"male Sprague-Dawley rat, plasma","oral gavage, 30 mg/kg, day 7",19.8 min
Cn1nnc2c(C(N)=O)ncn2c1=O,"male athymic rat, intracranial U87 glioma, tumour extracellular fluid","oral, 50 mg/kg, uncorrected microdialysis, median, added: after cediranib",90 min
O=C(O)C[C@H](O)C[C@H](O)/C=C/c1c(C2CC2)nc2ccccc2c1-c1ccc(F)cc1,"male Sprague Dawley rat, NASH, plasma","oral, 2.5 mg/kg, median, added: vehicle",30 min
COc1cccc(-c2n[nH]c(SCc3ccccn3)n2)c1OC,"Sprague-Dawley rat, both sexes, plasma","oral, diet, 30 mg/kg/day, day 90",360 min
CS(=O)(=O)c1ccc(-c2cnc(N)c(-c3ccc(C(F)(F)F)nc3)c2)cc1,"pregnant female Sprague-Dawley rat, plasma","oral, 10 mg/kg/day, gestation day 6",240 min
CCCC[C@H](NC(C)=O)C(=O)N[C@H]1CCC(=O)NC[C@@H](C(=O)N[C@@H](Cc2c[nH]c3ccccc23)C(N)=O)NC(=O)[C@H](CCCNC(=N)N)NC(=O)[C@@H](Cc2ccccc2)NC(=O)[C@H](Cc2c[nH]cn2)NC1=O,"CD Sprague Dawley rat, male, plasma","subcutaneous, 25.0 mg/kg daily, day 1",30 min
CC(C)=CCC[C@](C)(O[C@@H]1O[C@H](CO)[C@@H](O)[C@H](O)[C@H]1O)[C@H]1CC[C@]2(C)[C@@H]1[C@H](O)C[C@@H]1[C@@]3(C)CC[C@H](O)C(C)(C)[C@@H]3[C@@H](O[C@@H]3O[C@H](CO)[C@@H](O)[C@H](O)[C@H]3O)C[C@]12C,"Sprague Dawley rat, male, plasma","oral, 25 mg/kg, frozen ginseng extract",15 ± 3.6 min

# A few entries again:
SMILES,system,conditions,Tmax
COc1cccc(-c2n[nH]c(SCc3ccccn3)n2)c1OC,"Sprague-Dawley rat, both sexes, plasma","oral, diet, 30 mg/kg/day, day 90",360 min
